# Experimental data pooled from the literature.
# A part holds a random share of what one study measured.

# Series 1
# Target: RING finger protein unkempt homolog, zinc fingers 1-6, GST-SBP tag (UNK, Homo sapiens, UniProt Q9C0B0, residues 30-357)
# UniProt Q9C0B0, sequence (30-357, looked up): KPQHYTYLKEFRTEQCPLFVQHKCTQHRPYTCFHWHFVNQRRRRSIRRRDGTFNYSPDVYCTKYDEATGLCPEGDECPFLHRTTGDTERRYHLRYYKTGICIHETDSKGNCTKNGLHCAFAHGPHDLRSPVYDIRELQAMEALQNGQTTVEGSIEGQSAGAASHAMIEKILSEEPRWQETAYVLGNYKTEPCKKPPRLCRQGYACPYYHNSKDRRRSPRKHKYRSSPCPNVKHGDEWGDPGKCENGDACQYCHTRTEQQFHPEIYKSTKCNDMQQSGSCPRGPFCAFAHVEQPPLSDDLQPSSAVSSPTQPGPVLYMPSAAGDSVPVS
# Technique: RNA Bind-n-Seq
# Molecule type: RNA
# Matrix: in vitro
# Tested at: not given
# Setting: RNA with constant flanks, ends assumed
# Baseline: input RNA pool
# Direction: higher = stronger binding
Strand,bound/input enrichment [ratio]
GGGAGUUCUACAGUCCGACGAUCGCUGAAGAUGACAGCAAAAUAGAUUCAUGAAGUUUUUUGCCUCCCACGUUGGGAAGUCCUCCGUGAAGAAUUCUCCCAUGGGCCGUUCACUGUCCUUCUCCAGGCCCCUAUCUGUCCUCCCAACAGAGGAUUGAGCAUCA,0.577
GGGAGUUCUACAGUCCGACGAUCUCCCAUAUGAAAAAAGGAGAGAACACUGGCAUCUGUUGAAAUUUGGAAGUUCUGAAAUUACCGUAUUUUUAAAAAUUGCACUGAAGUGUAUACACAUAAAGCAGGUCUUUUAUCCAGUGACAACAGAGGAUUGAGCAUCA,0.449
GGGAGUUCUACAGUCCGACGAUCCAGCUGCGAGGCCGCGGGUGCCCGCCGGGUGUGCUGAGCCGCCGCCAUGGGCAUCAAGUUUUCCGAAGUUAUUAAACCUUUCUGUGCAGUUCUACCAGAAAUUCAGAAGCCUGAAAGGAACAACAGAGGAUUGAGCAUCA,0.101
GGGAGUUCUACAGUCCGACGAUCCCCAAAACUAAUCUUCUGUACAAAGUUGUGUGCAUAUUGAGAUGAUUAGUUAAGGCAGUGCCGUUUUUUAAAUUUUUUCUGUAUAAAUUUCUUUCCUUCUUCCCCACCUCAGGCACCUACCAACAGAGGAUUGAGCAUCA,1.96
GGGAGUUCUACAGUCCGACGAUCUUGGCCAGUCAGUAUUCUGCUAAUGAAAUGUAUGCAGAAGCACUGAACACAUACCAAGUUACCGUGAAAAACAAGAUGUUUAGCAAUGCAGGAAGACUGAAAGUGAAUAUGGGAAAUAUUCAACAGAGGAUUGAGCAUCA,0.149
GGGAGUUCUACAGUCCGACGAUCACUCUUGACUCUUUCCAUUCUCGUCCCUUUCCUCUUGAUCUUCAAGGCCAUGAAUCCCAAAACCGCUAUCUAUCUUAGAGGCUAGCACCCAAACUGAGGUGCCAUCCAAACUGACAAGGCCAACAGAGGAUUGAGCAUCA,0.414
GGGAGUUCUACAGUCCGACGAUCGGGCAGUUUGCGUUCCAUGUUGGUCUUCCUGCAAAAUCUGGAGUUGCUGGGGGUAUUCUUUCCGUUGUCCCCAACGUCAUGGGCAUGAUGUGUUGGUCUCCUCCUCUUGACAAGAUGGGCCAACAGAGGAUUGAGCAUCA,0.304
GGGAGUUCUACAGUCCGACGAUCGGCCUGACAAAUUAUGCUGCAGCCUAUUGCACUGGCCUGCUGCUGGCCCGCAGGCUUCUGAACCGGUUUGGCAUGGACAAGAUCUAUGAAGGCCAAGUGGAGGUGAAUGGAGGUGAAUACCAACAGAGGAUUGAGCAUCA,0.238

# Series 2
# Target: Histone acetyltransferase KAT6A, winged helix 1, GST fusion (KAT6A, Homo sapiens, UniProt Q92794, residues 1-85)
# Technique: protein binding microarray
# Molecule type: double-stranded DNA, one strand shown
# Matrix: in vitro
# Tested at: not given
# Setting: 8-mer, flanks averaged, mean of 2 arrays, mostly near background
# Baseline: not given
# Direction: higher = stronger binding
# Target sequence (chain): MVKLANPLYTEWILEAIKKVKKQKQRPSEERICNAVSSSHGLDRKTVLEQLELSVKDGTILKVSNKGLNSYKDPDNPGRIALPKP
Strand,E-score
ATCCGCGG,0.406
CCCAGGCG,0.00955
GCATTCCA,0.0117
GCACGGAA,0.198
AATTCATC,-0.0373
ATTACCGG,0.314
AGGACATA,-0.0526
CTAGAGAC,-0.127
GAAATATC,-0.181
AGTGATAA,-0.0801
ACGGCTAA,0.323
ACGACTTA,-0.0753
TGTTAACA,0.0134
AAAATGCG,0.252
ACGAACTC,0.0265
ATGAGAAG,-0.165
ACCCACTA,-0.115
CAACGTCC,-0.0272
GGGGGCAA,0.0778
AAAGGGCA,-0.2
GCCCAGGC,-0.02
ATTCACGC,0.096

# Series 3
# Target: Interferon regulatory factor 3, full length, phosphomimetic (IRF3, Homo sapiens, UniProt Q14653, residues 1-427, S386D/S396D/S398D/S402D/T404D/S405D)
# UniProt Q14653, sequence (whole entry, unmodified, looked up): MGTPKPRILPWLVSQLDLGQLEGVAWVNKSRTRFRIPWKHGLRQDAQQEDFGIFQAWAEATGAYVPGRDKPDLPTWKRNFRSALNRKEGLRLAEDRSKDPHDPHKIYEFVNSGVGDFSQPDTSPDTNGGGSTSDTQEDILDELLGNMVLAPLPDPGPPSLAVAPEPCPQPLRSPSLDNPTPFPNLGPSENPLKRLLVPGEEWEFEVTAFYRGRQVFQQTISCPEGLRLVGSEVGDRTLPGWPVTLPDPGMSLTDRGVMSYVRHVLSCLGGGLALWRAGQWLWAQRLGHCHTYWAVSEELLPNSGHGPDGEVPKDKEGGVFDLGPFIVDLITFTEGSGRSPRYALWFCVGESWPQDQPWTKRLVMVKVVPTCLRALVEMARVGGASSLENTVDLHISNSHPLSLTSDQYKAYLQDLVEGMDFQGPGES
# Technique: protein-binding microarray
# Molecule type: double-stranded DNA, one strand shown
# Matrix: in vitro
# Tested at: 2540 nM top
# Setting: 60-bp whole probe
# With: salmon DNA 0.4 mg/ml
# Baseline: random background probes
# Direction: higher = stronger binding
# All sequences stand within: GCCTAGCAC … GTCTTGATTCGCTTGACGCTGCTG
Strand,fitted relative affinity [z-score]
GACGATTCCAGTTGCGAGACGTGCTAG,1.13
CAAGGAACTCAGAGATTTAAGTGCTAG,-0.707
CCAAGTTTATACCTTAGGTTGTGCTAG,0.111
TTAGGTCTCAGTCTCGGTTAGTGCTAG,1.09
GACGATATCAGTCGCGAGACGTGCTAG,-0.0403
ACTGATTTCCACTTTCTTAAGTGCTAG,2.91
CTTGCCCACTTCTGTGACAGGTGCTAG,1.16
TCACCTACAGGTTCTCTGACTGTGCTA,-0.0869
TCAGGACTGGGGTATCGGTTAGTGCTA,0.12
TTAGATATCACACTGGATTAGTGCTAG,0.191
CTTCATGTTTTTTTCTACTTGTGCTAG,0.616
ACATTCCATGAGCCCACTGGGTGCTAG,0.521
GACGATCTCAGACTCGAGACGTGCTAG,0.432
GACGGTCTTCTTATCCTGACGTGCTAG,0.662
TACGGACTGGGGACTGGGGACGTGCTA,-1.07
TTAGGACTGGGACTGGGCTAGTGCTAG,-1.07
CCTTCTCTAACCTCTCTAATAGTGCTA,4.3
TCACTTCTGCTTCCTCAGACTGTGCTA,1.13
TTAGGTATCGGACTGAGTTAGTGCTAG,1.18

# Series 4
# Target: Prothrombin, mature alpha-thrombin (F2, Homo sapiens, UniProt P00734)
# Technique: aptamer microarray, sandwich
# Molecule type: DNA with 2'F-ANA
# Matrix: in vitro
# Tested at: 200 nM
# Setting: whole 15-mer aptamer, many near background
# With: Cy3 exosite-II aptamer, 400 nM
# Direction: higher = stronger binding
# Strand: GGTTGGTGTGGTTGG
Modification,mean fluorescence intensity [a.u.]
2'F-ANA at 2 3 4 5 6 9 11 14 15,85.4
2'F-ANA at 3 4 5 7 9 10 13,49.3
2'F-ANA at 4 5 12 14,43.2
2'F-ANA at 1 2 4 7 9 11 12 13 15,197
2'F-ANA at 4 5 9 12 14 15,47.9
2'F-ANA at 1 2 6 7 9 12,352
2'F-ANA at 2 4 6 7 11 12 13,336
2'F-ANA at 1 7 8,272
2'F-ANA at 4 5 6 11 12,126
2'F-ANA at 1 3 4 5 7 8 9 10 11 14 15,48
2'F-ANA at 1 2 3 4 7 12,425
2'F-ANA at 3 5 8,149
2'F-ANA at 1 7 8 9 11 12 15,373
2'F-ANA at 1 3 4 6 9 12 13 15,214
2'F-ANA at 1 3 5 7 8 11 14,45
2'F-ANA at 10 13 14 15,97.3
2'F-ANA at 4 5 6 7 10 12 14,51.6
2'F-ANA at 2 4 5 11 13 15,49.8
2'F-ANA at 1 2 3 9 11 14 15,63.1
2'F-ANA at 3 4 5 7 8 11 12 14 15,58.2
2'F-ANA at 2 5 9 12 13 15,102
2'F-ANA at 1 3 4 5 7 8 9 11 12 13 15,75.3
2'F-ANA at 3 5 7 8 12 13 14 15,71.9

# Some of these lines once more (series 3):
Strand,fitted relative affinity [z-score]
CTTCATGTTTTTTTCTACTTGTGCTAG,0.616
ACATTCCATGAGCCCACTGGGTGCTAG,0.521
GACGATCTCAGACTCGAGACGTGCTAG,0.432
GACGGTCTTCTTATCCTGACGTGCTAG,0.662
TACGGACTGGGGACTGGGGACGTGCTA,-1.07
TTAGGACTGGGACTGGGCTAGTGCTAG,-1.07
CCTTCTCTAACCTCTCTAATAGTGCTA,4.3
TCACTTCTGCTTCCTCAGACTGTGCTA,1.13
TTAGGTATCGGACTGAGTTAGTGCTAG,1.18
